Assay results gathered from unrelated publications.
Numbered parts are unrelated; each lists some results of a single study.

Study 1
Target: Protein C-ets-1 (ETS1, Homo sapiens, UniProt P14921, residues 1-441, Y397A, full length assumed)
Chain of UniProt P14921 (whole entry, unmodified, looked up): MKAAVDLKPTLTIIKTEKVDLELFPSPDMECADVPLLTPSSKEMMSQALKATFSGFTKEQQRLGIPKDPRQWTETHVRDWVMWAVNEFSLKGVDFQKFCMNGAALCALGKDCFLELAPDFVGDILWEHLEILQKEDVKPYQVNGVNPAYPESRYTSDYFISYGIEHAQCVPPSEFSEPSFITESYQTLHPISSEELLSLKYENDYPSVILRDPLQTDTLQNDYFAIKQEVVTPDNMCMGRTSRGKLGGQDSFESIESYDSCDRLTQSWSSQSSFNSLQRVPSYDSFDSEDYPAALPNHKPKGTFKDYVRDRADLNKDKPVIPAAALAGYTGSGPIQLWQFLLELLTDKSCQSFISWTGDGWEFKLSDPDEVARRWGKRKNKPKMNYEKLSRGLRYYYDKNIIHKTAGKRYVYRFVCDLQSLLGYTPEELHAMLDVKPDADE
Technique: protein-binding microarray
Form: double-stranded DNA, one strand shown
Medium: in vitro
Tested at: not given
Notes: k-mer, scored over probes, only values ≥0.25
Direction: higher = stronger binding
Strand	E-score
TGCCGACA	0.268
ACACAACA	0.291
CGTCAAAA	0.38
ACATATCC	0.265
ATTTTCCG	0.328
ATTGTCAC	0.303
CATTGTCG	0.29
CAATTACA	0.25
ACGACATC	0.267
CCCGCCCA	0.361
ACCGACAT	0.366
CGCCCACA	0.261

Study 2
Target: RNA binding protein fox-1 homolog 2, RRM domain, GST-SBP tag (RBFOX2, Homo sapiens, UniProt O43251-10, residues 100-194)
Technique: RNA Bind-n-Seq
Form: RNA
Medium: in vitro
Tested at: 365 nM
Notes: natural RNA segment, single round, ends assumed
Reference: no-protein control
Direction: higher = stronger binding
Residues (chain): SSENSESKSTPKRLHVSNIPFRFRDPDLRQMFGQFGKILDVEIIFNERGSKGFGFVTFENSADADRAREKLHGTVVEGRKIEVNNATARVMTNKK
Strand	RBNS enrichment (R)
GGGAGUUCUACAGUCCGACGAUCUAAUGCAGGUGGUAAACCUAAUUCCAUAAGCAUGGCCUGCCCGAGCCAGAAGGAAGAAGAGCUUGCUCCCUGGCCUGAGGAAGUGCCUCGUAGGUAGUCAUGGAAGUCACUGGAAUUCUCGGGUGCCAA	1.01
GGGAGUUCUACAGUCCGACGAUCAAGGCUGGCAUCAUCCUAUUUCCCACAGGCUAACCCAAGGGAUGCUCUGUGCCUUUCCUGGGGAGGGAAGGGGAUGAACUGGUAGAUUUGAAAGCAGUAUGGCUUCUUCUUGGAAUUCUCGGGUGCCAA	0.247
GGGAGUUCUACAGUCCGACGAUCUUUUUGGAAAUUUCCAUCAUCCUCAAGUCACGCAAAUACCAAUUUCACAUCGGAGCUGCGUGUGAAAUGGAUUCAGCAUUCCGCGCCCUUGCUUUACAAUUUUAGUCCUGUGGAAUUCUCGGGUGCCAA	0.345
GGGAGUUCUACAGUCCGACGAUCAGCCCAUCCAUCUCUUGGUUGCUAGUGAUUUUCAUAGAGUAGAUUGACUAGUAAGGUGUUGUAAGUGAUAAGAUCAAUAUCCCUAUGGCUGCUUCCUUGAUCACAGUUUCUGGAAUUCUCGGGUGCCAA	0.309
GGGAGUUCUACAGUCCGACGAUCACCUCCUUGGGCUAUAUUUUCUCUCCUCGAGUUGCUCCUCAUGGCUGGGCUCAUUUCGGUCCCUUUCUCCUUGGUCCCAGACCUUGGGGGAAAGGAAGGAAGUGCAUGUUUGGAAUUCUCGGGUGCCAA	0.661
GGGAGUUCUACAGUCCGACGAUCUCUCGGGCCAGUGCUCUGCUCUGUCCAGGGUAGGUAAUACUGGGAGACUCCUGUCUUUUACCCUCCCCUCGUUCCAGACCUGCCUCAUGGUGGCAACAUGGUUCUUGAACUGGAAUUCUCGGGUGCCAA	0.255
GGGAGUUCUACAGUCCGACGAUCGAGCCUGCUUCUGGGCCACCCCUCCUGGUUCAGGGCUGUGCUCACAGCAGAUUCUUGCAGUAUCAAGUAUACGCCUGUGGCAGAAUAAGUAUCUGUAAAUACAUGUUUAAUGGAAUUCUCGGGUGCCAA	0.417
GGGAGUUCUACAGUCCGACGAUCCAGGGAUUCAUAGAGUUCCGGGCCUGGGAUUCUCCCAGCUGCGCCAUAGGUCAUCCUCAACAACCCAGAGGGUCCCUGCUCUGACAUCCUAGUCCCCGUGAGCCCUGCAGUGGAAUUCUCGGGUGCCAA	0.261

Study 3
Target: Centromere-binding protein 1, full length, His-tagged (CBF1, Saccharomyces cerevisiae, UniProt P17106, residues 1-351)
Chain of UniProt P17106 (whole entry, looked up): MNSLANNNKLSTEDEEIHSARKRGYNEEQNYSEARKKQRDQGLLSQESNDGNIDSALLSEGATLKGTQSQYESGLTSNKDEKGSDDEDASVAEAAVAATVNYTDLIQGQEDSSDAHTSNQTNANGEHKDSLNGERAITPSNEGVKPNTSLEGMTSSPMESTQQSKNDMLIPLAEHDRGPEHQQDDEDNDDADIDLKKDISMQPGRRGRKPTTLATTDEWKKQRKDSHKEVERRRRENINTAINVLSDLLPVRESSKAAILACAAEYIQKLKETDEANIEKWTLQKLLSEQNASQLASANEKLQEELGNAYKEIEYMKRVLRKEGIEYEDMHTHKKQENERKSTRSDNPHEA
Technique: competition protein-binding microarray
Form: double-stranded DNA, one strand shown
Medium: in vitro
Tested at: 2 µM
Notes: whole 60-bp probe, lowest competitor level
Added: Pho4 competitor, 0.05 µM
Direction: higher = stronger binding
Strand	fluorescence intensity
AAAGCGGTAATTTGTCACTTCACTTCACATATCTATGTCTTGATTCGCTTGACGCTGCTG	83.2 a.u.
AAATTACTAAGTTGTAGAGTGGGTGACGCCGTATGAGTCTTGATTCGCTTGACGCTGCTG	65.8 a.u.
TGGCCAAGGTTGTCTTCCGTGACTCGTACAAGTACAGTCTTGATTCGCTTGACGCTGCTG	93.9 a.u.
TGGTTCAGACTGGATCAGGCAATCAGCGAACAAATGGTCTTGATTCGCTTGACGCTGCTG	60.1 a.u.
CTAACGAAGGTTTGCGAGGTGGGTGACAAGCCAAGTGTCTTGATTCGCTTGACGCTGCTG	71.7 a.u.
TGCGCAACAACTTGTATCGTGGGTGTATGTCTAGAAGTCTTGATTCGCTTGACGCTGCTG	72.1 a.u.
ACACACATTCTCCGTCACATGGACGATGCCAGAGTCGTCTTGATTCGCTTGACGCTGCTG	468 a.u.
CATACCCAACCTTGTCTCGTGGGTGAAGATATTTGTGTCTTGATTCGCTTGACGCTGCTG	109 a.u.
AAAGCGGTAATTTGTGTGGTGGGTGCAGATATCTATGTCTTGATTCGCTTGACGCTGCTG	81.2 a.u.
CTATAATGATTCTGTCGCGTGGAACGGTTTTCCATGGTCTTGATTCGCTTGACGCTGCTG	94.9 a.u.
ATTGTATGAAGATAACGCGTGGTGAATTGGAAATAGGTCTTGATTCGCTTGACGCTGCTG	106 a.u.
TGCGCAACAACTTTTCACGTGCAGTTATGTCTAGAAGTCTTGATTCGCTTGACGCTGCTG	1140 a.u.
TTCATTGATCGAGAGCGCGTGGAACAAATTCTAGAAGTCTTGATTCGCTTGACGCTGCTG	95.5 a.u.
CGTCCTAGTGATTGCCATGTGGGTGCCATGAGGAAGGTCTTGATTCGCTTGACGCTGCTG	116 a.u.
CGTCCTAGTGATTGTCACGGAACTTCCATGAGGAAGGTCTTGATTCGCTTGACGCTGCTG	92.2 a.u.
GTTCGCATCGTCCGTCACAGCAGCACCAAACACAGGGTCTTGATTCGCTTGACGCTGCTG	71.1 a.u.
TAGCTGCTCCATTAAGGCGTGATGGACTATGGAGAGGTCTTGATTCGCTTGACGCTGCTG	174 a.u.
TTCAATGAAATTCGTCACGTCTCTGAGTTTCCTGAGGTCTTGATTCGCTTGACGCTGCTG	115 a.u.
CGGGGTTAAGTTTGTCACAACACTTGCTTGCAGCAGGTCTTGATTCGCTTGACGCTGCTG	87.4 a.u.

Study 4
Target: Interferon regulatory factor 3, full length, phosphomimetic (IRF3, Homo sapiens, UniProt Q14653, residues 1-427, S386D/S396D/S398D/S402D/T404D/S405D)
Technique: protein-binding microarray
Form: double-stranded DNA, one strand shown
Medium: in vitro
Tested at: 2540 nM top
Notes: 60-bp whole probe
Added: salmon DNA 0.4 mg/ml
Reference: random background probes
Direction: higher = stronger binding
Shared flanks, not repeated: GCCTAGCAC … GTCTTGATTCGCTTGACGCTGCTG
Target sequence (chain): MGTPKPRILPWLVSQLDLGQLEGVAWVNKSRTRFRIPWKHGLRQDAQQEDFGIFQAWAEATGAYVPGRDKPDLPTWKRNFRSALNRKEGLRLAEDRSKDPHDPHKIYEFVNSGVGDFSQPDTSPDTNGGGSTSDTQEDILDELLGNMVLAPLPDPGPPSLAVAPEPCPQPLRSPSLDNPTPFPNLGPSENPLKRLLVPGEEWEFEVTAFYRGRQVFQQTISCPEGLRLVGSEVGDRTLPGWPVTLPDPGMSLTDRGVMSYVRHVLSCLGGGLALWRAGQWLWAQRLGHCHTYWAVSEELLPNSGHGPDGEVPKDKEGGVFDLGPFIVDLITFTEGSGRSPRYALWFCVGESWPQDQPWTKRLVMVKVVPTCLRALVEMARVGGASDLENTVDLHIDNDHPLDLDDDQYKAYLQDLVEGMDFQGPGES
Strand	fitted relative affinity [z-score]
GACGGTCTCGGACTGGGGAGGTGCTAG	-0.00916
GACGGTTTCCTTTTCCTGCCGTGCTAG	10.6
GACGGACTGCTTTGCCTGACGTGCTAG	-0.581
TTAGGTTTCGATTTCGGTTAGTGCTAG	8.41
GACGACTCCAGTTTCGAGACGTGCTAG	1.73
TACTAGAGTAAAACCCTGGCGTGCTAG	-0.484
AGACTTTTTTCAGACCTGTCGTGCTAG	0.748
ACCGTTGTAGTTTTCATTATGTGCTAG	2.29
TTAGATATCAGTATCGACTAGTGCTAG	1.11
TTAGGTCTCGGGATCGGTTAGTGCTAG	0.0497
GACGGTCTCGGCCTGGGGACGTGCTAG	-0.348
TTAGGTATCGAAACTGGGTTAGTGCTA	1.67
GACGATATAGGGACTGGAGACGTGCTA	-0.333
GACGGACTGGTTCTCGGGACGTGCTAG	-0.167
GACGGTCTCCTTATCCTGAGGTGCTAG	2.91
TTAGGTTTCGACTTTCGGTTGGTGCTA	3.67
TTAGAACTGGGGTATCGACTAGTGCTA	-0.609
TTTGGACTGCTTCTCCTTTAGTGCTAG	-0.132
TCACTTTTCGCTTTCTTACTGTGCTAG	3.24

Some of these lines once more (study 4):
Strand	fitted relative affinity [z-score]
GACGGTCTCGGACTGGGGAGGTGCTAG	-0.00916
GACGGTTTCCTTTTCCTGCCGTGCTAG	10.6
GACGGACTGCTTTGCCTGACGTGCTAG	-0.581
TTAGGTTTCGATTTCGGTTAGTGCTAG	8.41
